Results of several laboratories.
Each numbered part is a random draw from the data of one study; scales do not carry over between parts. Substitutions count along the parent as printed.

Sample 1
Target: ABI1, truncated, D143A, DHFR fusion (Arabidopsis thaliana)
Method: DHFR PCA, deep sequencing
Medium: yeast
Setting: methotrexate growth selection, single substitutions
Together with: (+)-ABA 1.4 µM
Relative to: wild-type fitted maximum
Direction: higher = stronger binding
Parent: PYL1, truncated, DHFR fusion (Arabidopsis thaliana); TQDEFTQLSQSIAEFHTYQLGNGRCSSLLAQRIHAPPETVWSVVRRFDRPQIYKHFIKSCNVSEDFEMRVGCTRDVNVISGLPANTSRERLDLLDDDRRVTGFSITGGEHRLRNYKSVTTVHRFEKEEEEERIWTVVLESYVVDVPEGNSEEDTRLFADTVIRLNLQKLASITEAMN; partner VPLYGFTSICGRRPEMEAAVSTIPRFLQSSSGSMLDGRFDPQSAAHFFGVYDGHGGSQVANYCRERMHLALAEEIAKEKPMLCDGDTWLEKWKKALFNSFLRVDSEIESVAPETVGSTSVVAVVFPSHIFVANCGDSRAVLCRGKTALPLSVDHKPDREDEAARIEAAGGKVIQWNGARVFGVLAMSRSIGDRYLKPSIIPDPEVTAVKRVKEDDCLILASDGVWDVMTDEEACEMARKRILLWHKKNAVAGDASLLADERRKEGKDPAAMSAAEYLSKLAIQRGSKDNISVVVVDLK
| Change | relative binding score |
| --- | --- |
| G102I | -6.33% |
| K126D | 77% |
| M176R | 45.8% |
| T6S | 64.6% |
| R132L | 53.6% |
| F56C | -7.26% |
| V137A | 1% |
| H122T | -3.03% |
| L169R | 4.67% |
| E147G | -0.321% |
| N77A | 67% |
| L164H | 63% |
| Y115F | 44.6% |
| E89K | -7% |
| E174F | -24.2% |
| V142M | 22.2% |
| N165H | 16% |
| L91P | -2.54% |
| M176A | 42.7% |
| L82I | 42.6% |
| Q2C | 69.3% |
| Q19K | 65% |
| K58A | 46.2% |
| I52W | 16.2% |
| T160E | -12.3% |

Sample 2
Target: Ras GTPase-activating protein-binding protein 1, RRM domain (G3BP1, Homo sapiens, UniProt Q13283)
Chain of UniProt Q13283 (whole entry, looked up): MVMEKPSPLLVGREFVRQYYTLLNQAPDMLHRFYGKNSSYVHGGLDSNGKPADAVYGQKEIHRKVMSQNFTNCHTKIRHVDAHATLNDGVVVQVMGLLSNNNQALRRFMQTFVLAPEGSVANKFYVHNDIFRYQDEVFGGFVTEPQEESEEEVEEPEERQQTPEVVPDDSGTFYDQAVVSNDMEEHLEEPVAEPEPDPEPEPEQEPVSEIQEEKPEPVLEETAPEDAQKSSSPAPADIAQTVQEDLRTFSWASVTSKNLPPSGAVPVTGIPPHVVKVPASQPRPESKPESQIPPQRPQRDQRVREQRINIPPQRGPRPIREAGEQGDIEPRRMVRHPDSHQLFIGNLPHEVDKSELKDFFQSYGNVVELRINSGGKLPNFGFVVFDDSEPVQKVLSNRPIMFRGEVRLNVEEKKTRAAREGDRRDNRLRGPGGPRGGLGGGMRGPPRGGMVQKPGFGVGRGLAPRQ
Method: RNA Bind-n-Seq
Form: RNA
Medium: in vitro
Tested at: 1 µM
Setting: whole 134-nt RNA, ends assumed
Together with: 150 mM KCl
Relative to: input library
Direction: higher = stronger binding
All sequences stand within: GGGAGUUCUACAGUCCGACGAUC … UGGAAUUCUCGGGUGUCAAGG
| Sequence | log2 enrichment |
| --- | --- |
| GUCCUGUGCUACACAUCGUAUGUACCGAAUCGGUUUUUUGGUUUUUUGGGGUUUUUUGGAAAGUAUUAUGUUACGCCGUUCGGAUCUGCA | -0.274 |
| UGGUUAGUCAACUACUUUGGUUCCUUAUCAGUAGAAGACUCCCUAGAAUGUCUCAGAGCCAUGCUGUCUGCCAACAUCCGUCAGAAUCUG | -0.217 |
| CUGUGCUACACAUCGUAUGUACCGAAUCGGGGAAAAAGGGGAAAAAGGGGUUUUUUUGGGGAAAGUAUUAUGUUACGCCGUUCGGAUCUG | 1.15 |
| ACCAUGCAGGUGGGCAUCUUUGGGAAGUGGGGCAAGGGGGGGAUAGGGAGGGGGGUAACACUUUGGGAACAGGUGGUCCCAGGUCGUUCC | 1.12 |
| UAACUUUAGAGGAGGAUCUGAUGGAUAUGGCAGUGGACGUGGAUUUGGGGAUGGCUAUAAUGGGAAUGGAGGAGGACCUGGAGGUGGCAA | -0.283 |
| AGUCCUGUGCUACACAUCGUAUGUACCGAAUCGGUUUUUUUGGAAAGGUUUUUUUGGAAAGUAUUAUGUUACGCCGUUCGGAUCUGCACU | -0.376 |
| AAGUCCUGUGCUACACAUCGUAUGUACCGAAUCGGGGUUUGGGGUUUGGGGAGGGGAAAGUAUUAUGUUACGCCGUUCGGAUCUGCACUU | 1.39 |
| UGGCCCUGGUGGCAUGCGGGGAGGAAGAGGUGGCCUCAUGGAUCGUGGUGGUCCCGGUGGAAUGUUCAGAUGUGGCCGUGGUGGAGACAG | 1.59 |
| AAGUCCUGUGCUACACAUCGUAUGUACCGAAUCGGAAAGGUUUUUUUGGAAAAAGGAAAGUAUUAUGUUACGCCGUUCGGAUCUGCACUU | -0.317 |
| CUGUGCUACACAUCGUAUGUACCGAAUCGGUUUUUUUGGGGUUUUUUUGGGUUUUUUUGGGGAAAGUAUUAUGUUACGCCGUUCGGAUCU | -0.219 |
| UGGCCCUGGUGGCAUGCGGGGAGUAAGAGGUGGCCUCAUGGAUCGUGGUGGUCCCGGUGGAAUGUUCAGAGGUGGCCGUGGUGGAGACAG | 0.923 |
| CCUGUGCUACACAUCGUAUGUACCGAAUCGGGGUUUUUUUGGUUUUUUUGGUUUUUUUGGAAAGUAUUAUGUUACGCCGUUCGGAUCUGC | -0.105 |
| UUUACCCCUCACUGGAGUCAGAUGAAGACAACCCCAUCUUUAAGUCCCGGUCGAAGAAAAGGAAAGGCUCAGACGACGCUCCCUACAGCC | 0.0733 |
| GUCCUGUGCUACACAUCGUAUGUACCGAAUCGGGGUUUGGGGUGGGGAAAAAAAGGGGAAAGUAUUAUGUUACGCCGUUCGGAUCUGCAC | 0.86 |

Sample 3
Target: Sal-like protein 4, full length isoform A (SALL4, Homo sapiens, UniProt Q9UJQ4, residues 1-1053)
Chain of UniProt Q9UJQ4 (whole entry, looked up): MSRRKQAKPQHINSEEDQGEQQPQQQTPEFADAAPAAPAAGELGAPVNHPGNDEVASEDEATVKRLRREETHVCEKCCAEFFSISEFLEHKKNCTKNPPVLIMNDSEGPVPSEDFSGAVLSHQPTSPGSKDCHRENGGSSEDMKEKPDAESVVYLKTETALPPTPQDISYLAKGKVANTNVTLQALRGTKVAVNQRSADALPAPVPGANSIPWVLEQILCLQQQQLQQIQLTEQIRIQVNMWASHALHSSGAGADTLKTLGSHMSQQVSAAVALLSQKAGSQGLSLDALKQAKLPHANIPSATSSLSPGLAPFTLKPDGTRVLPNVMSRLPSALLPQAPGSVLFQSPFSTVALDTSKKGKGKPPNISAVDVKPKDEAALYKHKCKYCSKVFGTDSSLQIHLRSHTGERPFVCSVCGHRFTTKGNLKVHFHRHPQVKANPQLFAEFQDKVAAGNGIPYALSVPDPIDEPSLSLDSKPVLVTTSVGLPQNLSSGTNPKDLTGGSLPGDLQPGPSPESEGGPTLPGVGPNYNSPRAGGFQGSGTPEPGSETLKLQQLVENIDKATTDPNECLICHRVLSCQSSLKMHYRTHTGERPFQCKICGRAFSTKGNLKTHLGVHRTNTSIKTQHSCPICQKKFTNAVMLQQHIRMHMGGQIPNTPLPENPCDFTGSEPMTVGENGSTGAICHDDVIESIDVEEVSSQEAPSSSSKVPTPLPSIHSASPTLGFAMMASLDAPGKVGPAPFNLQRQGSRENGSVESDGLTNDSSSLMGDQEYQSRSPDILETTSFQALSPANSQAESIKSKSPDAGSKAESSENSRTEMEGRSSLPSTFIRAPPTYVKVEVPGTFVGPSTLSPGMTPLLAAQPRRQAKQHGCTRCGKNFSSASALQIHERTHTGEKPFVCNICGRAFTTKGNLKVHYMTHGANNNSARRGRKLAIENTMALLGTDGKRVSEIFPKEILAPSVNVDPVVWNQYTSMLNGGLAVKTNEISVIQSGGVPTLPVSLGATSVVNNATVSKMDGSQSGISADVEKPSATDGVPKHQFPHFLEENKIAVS
Method: universal PBM
Form: double-stranded DNA, one strand shown
Medium: in vitro
Tested at: 600 nM
Setting: 8-mer, flanks averaged, mean of replicates
Direction: higher = stronger binding
| Sequence | E-score |
| --- | --- |
| ACTGATGA | 0.128 |
| GGCACCAA | -0.0426 |
| ATCGTATG | 0.193 |
| GAAGAGGA | -0.163 |
| ATGTATCG | 0.211 |
| GGTATACA | 0.0953 |
| AGAATGTA | 0.272 |
| AAATTATC | 0.426 |
| CGGAACTA | -0.105 |
| AAGCCTTG | -0.0949 |
| AGGAACCT | 0.0685 |
| ATGGTCCC | -0.287 |
| CGACCCGC | -0.329 |
| GAGGATAA | 0.135 |
| AAGATTTC | 0.0862 |
| TTAGAAAA | 0.273 |
| CCGCATCA | -0.143 |

Sample 4
Target: Histone acetyltransferase KAT6A, winged helix 2, GST fusion (KAT6A, Homo sapiens, UniProt Q92794, residues 85-181)
Method: protein binding microarray
Form: double-stranded DNA, one strand shown
Medium: in vitro
Tested at: not given
Setting: 8-mer, flanks averaged, mean of 2 arrays, mostly near background
Relative to: not given
Direction: higher = stronger binding
Construct (chain): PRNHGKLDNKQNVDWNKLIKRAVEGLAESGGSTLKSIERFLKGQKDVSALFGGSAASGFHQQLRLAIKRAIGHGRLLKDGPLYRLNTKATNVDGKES
| Sequence | E-score |
| --- | --- |
| GGGGACCC | 0.0924 |
| ACGATGGA | -0.0842 |
| AATCACCT | -0.145 |
| CGGTGAAC | 0.0495 |
| CGGCGGTA | 0.172 |
| ATAAAAAA | 0.0698 |
| CTTCTTAC | -0.00996 |
| ACCGGGCT | 0.00685 |
| GAAATCTA | -0.00429 |
| CCCACACC | 0.135 |
| ACCTCCCA | -0.118 |
| GTAGCTGA | -0.089 |
| AGTGCCTC | 0.0438 |
| GTCAACCA | -0.0726 |
| CGCGAGGC | 0.194 |
| GGATATTA | -0.0465 |
| GCGTCTAA | -0.0679 |
| CCTAACCC | -0.269 |
| GGTAATAC | 0.0257 |

Sample 5
Target: RNA binding protein fox-1 homolog 2, RRM domain, GST-SBP tag (RBFOX2, Homo sapiens, UniProt O43251-10, residues 100-194)
Method: RNA Bind-n-Seq
Form: RNA
Medium: in vitro
Tested at: 365 nM
Setting: natural RNA segment, single round, ends assumed
Relative to: no-protein control
Direction: higher = stronger binding
All sequences stand within: GGGAGUUCUACAGUCCGACGAUC … UGGAAUUCUCGGGUGCCAA
Construct (chain): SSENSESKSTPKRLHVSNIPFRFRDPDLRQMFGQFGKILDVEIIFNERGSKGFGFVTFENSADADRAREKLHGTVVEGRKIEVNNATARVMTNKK
| Sequence | RBNS enrichment (R) |
| --- | --- |
| GGAUCACUAAACUAGGUAGAGAAGGGCACACCACACCCCAGCGCCCCAGGAGCCAAAACUCACGCUCGGGCAGCAGCAGCUGAGGCUUGAGGAAGCUGGUGUCCUAAGAC | 0.242 |
| GAGGCCAUGUGCCAUUCUCCCGGGCCCAGCGCCCGGCCGUCACCCCACCCGAUGACCUGCAUGAAGCCAGCAGCACCCAGAGCCACUCCUGCUGCCCUAGAACUAGCGGU | 5.69 |
| CAGUCUCCUGUUCUCAGUCAGGCUUCGCUUGAGGUCAGUGCUAUAAAAAUUGAAAGCUUCCAGAGAGCUGCCCUGGUCUCCCUUCCUCUCCUGUAAGAGUAUUAAUGUUG | 0.561 |
| CUAAAACCACGUGAAAUGUGAAUGAUUAUUGGCAAUAUUACCUUGACAGAAUCAUGGGACUUUGAGAAGAGGGAGGACAGAGGCCUCUGUCGCACUAACGCUCUCGUGGU | 0.453 |
| AGGGAGCCCCUGAGCCCCAACCUUCCCCUGCCUCAGCCUUUGAUUGUCCAGGGUGAAGCUGUGGGAGAACCGCCUGGGCUACCAGUCAGAGCUGGUCUUUGGGCUGUGUU | 1.66 |
| GGAUUUGCUCUGAGUCUCCGGUGCAUCAUUUAAUCUGUUAGGUUCUAGUGUUCCGUCUUGUUUUGUGUUAAUUACAGCAUUGUGCUAAUGUAAAGACUCUGCCUUUGCGA | 0.992 |
| UAGCGACACACUCCUCAUCCAGGCUUCCCAAGAUACACUAGCUCUGGGACACCCCAGGCAUGCUCUCAAACUAGUCAUGGGGCCUUCUGAGGACAGUUCCAUCCUACCUU | 1.4 |
| CACAUGUAGUCCUGAGUCCUUCCUGCCGGAGAUGCCACCGGUUGCACAGCCCUCAAGAGGCCCCUUUGGAUAGUGGCCCUGCACGAGACUGUGCCUUGAUCAUUUCGGUG | 0.325 |
| AGAGAUGGGGUUUCACCGUGCUGGCCAGGCUGGUCUAGAACUCCUGACUGCAAAUGAUCAGCCCGCCUCAGCCACCCAAAGUGUUGGGAUUACAGGUGUGAGCCACUGUG | 0.454 |
| ACAUCUGCUCGUUCUUGCCGAGGGUGCAGUGGUGGCGUGGAAGCCCUGUCACCCCACCCCAGGCCACCCUCUCCCAGAGGACGCCAUCUCCCUUACUGUUGCUGGGAGCC | 0.391 |
| CAAGAGCCCACCUCCUGCUGUGUGAUGUCAUCAGGACACCCCCACCCUCACCCCACCACCAGGGUCCUGACUUCACAUUCUUCACAGAAGGGGACAAGACCUCCAGGAGG | 0.387 |
| GAGUUUAAAAUUAUAGUCUGUCUUUUAUCUUAACAGUUCUGAAUGCUGUCCUCAAAGUAUAUAAUGUUUCUCAUAUGUACCAAGACCAUUUUCACAAUAAACAGAUCUGU | 0.52 |

Some of these lines once more (sample 4):
| Sequence | E-score |
| --- | --- |
| ACCTCCCA | -0.118 |
| ACGATGGA | -0.0842 |
| CGGCGGTA | 0.172 |
| ATAAAAAA | 0.0698 |
| GGTAATAC | 0.0257 |
